Experimental data gathered from unrelated publications.
Numbered parts are unrelated; each lists some results of a single study. Several values in a cell are separate wells, animals, samples, runs or records.

Study 1 — cell line: HaCaT; tested at: 100 µM; time: 18 h
SMILES | viability [%]
COc1cc2c(cc1OC)[C@@H]1Cc3ccc(OC)c(OC)c3CN1CC2 | 112
O=c1cc(-c2ccccc2)oc2cc(O)c(O)c(O)c12 | 73.8
Cc1cc(/C=C/C#N)cc(C)c1Nc1ccnc(Nc2ccc(C#N)cc2)n1 | 24.1
COc1ccc2cc1Oc1ccc(cc1)C[C@H]1c3cc(c(OC)cc3CCN1C)Oc1c(OC)c(OC)cc3c1[C@H](C2)N(C)CC3 | 20.4
CN(C/C=C/C#CC(C)(C)C)Cc1cccc2ccccc12 | 39.9
Cn1nnc2c(C(N)=O)ncn2c1=O | 107
CC(C)(Oc1ccc(CCNC(=O)c2ccc(Cl)cc2)cc1)C(=O)O | 97
CCOC(=O)[C@H](CCc1ccccc1)N[C@@H](C)C(=O)N1CCC[C@H]1C(=O)O | 108
Cc1cc(CC(=O)O)n(C)c1C(=O)c1ccc(Cl)cc1 | 90.5
CCCCC(CC)CN1CN(CC(CC)CCCC)CC(C)(N)C1 (stereo not shown) | 66.2

Study 2 — host: C57BL/6 CES1-/- mice, EL4 tumour; route: subcutaneous; dose: 0.3 mg/kg/day DON equivalent; time: 5 days
SMILES: CC(=O)N[C@@H](Cc1c[nH]c2ccccc12)C(=O)N[C@@H](CCC(=O)C=[N+]=[N-])C(=O)OC(C)C
test | test system | setting | scale | metabolite peak intensity
LC-MS/MS metabolomics, refers to: mannitol/sorbitol | EL4 tumour | – | higher = more metabolite | 3.04e+07 a.u. and 1.97e+07 a.u. and 1.61e+07 a.u. and 3.02e+07 a.u. and 2.71e+07 a.u. and 2.82e+07 a.u.
UPLC-MS/MS metabolomics, refers to: gamma-glutamylcysteine | EL4 tumour | normalised to tissue mass | – | 158000 a.u. and 73300 a.u. and 401000 a.u. and 702000 a.u. and 694000 a.u. and 588000 a.u.
UPLC-MS/MS, refers to: guanosine | EL4, tumour | normalised to tissue mass | higher = more metabolite | 2.19e+07 a.u. and 1.78e+07 a.u. and 1.66e+07 a.u. and 1.55e+07 a.u. and 1.2e+07 a.u. and 1.48e+07 a.u.
LC-MS/MS metabolomics, refers to: orotate | EL4 tumour | – | higher = more metabolite | 1.5e+08 a.u. and 2.71e+08 a.u. and 7.06e+07 a.u. and 9.72e+07 a.u. and 1.54e+08 a.u. and 8.36e+07 a.u.
UPLC-MS/MS metabolomics, refers to: glutamate | EL4 tumour | normalised to tissue mass | – | 6.17e+09 a.u. and 4.53e+09 a.u. and 5.12e+09 a.u. and 5.78e+09 a.u. and 3.7e+09 a.u. and 5.9e+09 a.u.
UPLC-MS/MS metabolomics, refers to: N-acetylvaline | EL4 tumour | normalised to tissue mass | higher = more metabolite | 198000 a.u. and 188000 a.u. and 223000 a.u. and 127000 a.u. and 184000 a.u. and 154000 a.u.

Study 3 — observed: enzyme activity; action: inhibitor; tested at: 0.5 µM; relative to: control
Target: Dual specificity tyrosine-phosphorylation-regulated kinase 1A (DYRK1A, Homo sapiens, UniProt Q13627)
Structure (SMILES) | remaining activity
O=C1c2ccccc2-c2n[nH]c3cccc1c23 | 71.6%
Nc1cccc(-c2cc3c(Oc4cccc(O)c4)ncnc3[nH]2)c1 | 103%
Cc1nc2cc3nc(-c4cccs4)cnc3cc2n1C | 99.9%
O=C(Nc1cccc(Nc2nccc(Nc3cccc(C(F)(F)F)c3)n2)c1)C1CC1 | 107%
COc1cc2c(cc1OC)-c1[nH]nc(Nc3cccc(F)c3)c1C2 | 90.3%
CN(C)C[C@H]1CCn2c(c(C3=C(c4cn(C)c5ccccc45)C(=O)NC3=O)c3ccccc32)C1 | 88.7%
CCN(CC)C(=O)c1ccc(Nc2nc(OCC3CCCCC3)c3[nH]cnc3n2)cc1 | 91.9%
c1ccc(-c2[nH]ncc2-c2ccnc3ccccc23)nc1 | 90.9%
Cn1nc2c3c(cccc31)C(=O)c1ccccc1-2 | 94.1%
N#C/C(=C\c1ccc(O)c(O)c1)C(=O)NCc1ccccc1 | 102%
COc1cc2ncnc(Nc3ccc(O)c(Br)c3)c2cc1OC | 97.8%

Study 4 — host: human; medium: microsomes or S9; tested at: 2 µM; time: 0.5 h
SMILES | remaining compound [%]
Cc1cc2ncccc2c(Br)c1OS(=O)(=O)C(F)(F)F | 91.2
Cc1ccc2c(=O)c(-c3nc(-c4ccccc4C)no3)cn(CC(=O)NC3CCc4ccccc43)c2n1 (stereo not shown) | 0.431
O=C(NCCCn1cccn1)c1c(OCC2CC2)cc(=O)n2c1CCCCC2 | 78.3
COc1ccc(-n2c(-c3ccc(OCCN(C)C)cc3)nn(Cc3ccccc3)c2=O)cc1 | 47
COc1ccc2c(C)c(C(=O)OC(C)C)n(C)c2c1 | 38
CNS(=O)(=O)c1cn(CC(=O)Nc2ccc(C)cn2)cc1S(=O)(=O)NC | 99.5
COc1cc(=O)[nH]cc1C(=O)N1CCCN(C)c2ccccc21 | 69.2
CCN1CC(CN(C)c2ncnc3sccc23)Oc2ccccc21 (stereo not shown) | 0.878
CC1Nc2ncnc(NC(C)c3cc4ccccc4nc3-c3ccccc3)c2NC1=O (stereo not shown) | 21.8
Oc1c2ccc(-c3ccco3)nc2nn1-c1ccccc1 | 85.5

Repeated from above (study 4):
SMILES | remaining compound [%]
COc1ccc(-n2c(-c3ccc(OCCN(C)C)cc3)nn(Cc3ccccc3)c2=O)cc1 | 47
COc1ccc2c(C)c(C(=O)OC(C)C)n(C)c2c1 | 38
